Measurements gathered from unrelated publications.
Lines come from different studies, so protocols differ.
Vesicular acetylcholine transporter: Vesicular acetylcholine transporter (Rattus norvegicus, UniProt Q62666)
UniProt Q62666, sequence (whole entry, looked up): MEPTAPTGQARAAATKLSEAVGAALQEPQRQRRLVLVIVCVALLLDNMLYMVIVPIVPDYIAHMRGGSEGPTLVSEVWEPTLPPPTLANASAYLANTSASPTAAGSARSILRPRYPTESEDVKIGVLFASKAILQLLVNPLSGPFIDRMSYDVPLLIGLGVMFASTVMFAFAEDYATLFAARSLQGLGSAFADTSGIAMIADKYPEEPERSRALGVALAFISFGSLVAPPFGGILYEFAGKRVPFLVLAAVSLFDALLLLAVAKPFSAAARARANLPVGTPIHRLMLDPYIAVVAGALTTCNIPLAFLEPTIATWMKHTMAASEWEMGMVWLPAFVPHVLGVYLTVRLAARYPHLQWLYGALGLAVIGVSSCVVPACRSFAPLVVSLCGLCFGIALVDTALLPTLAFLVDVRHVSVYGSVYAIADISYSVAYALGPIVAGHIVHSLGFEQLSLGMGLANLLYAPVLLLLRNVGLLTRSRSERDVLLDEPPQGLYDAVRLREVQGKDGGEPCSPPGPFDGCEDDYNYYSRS
PTGS2: Prostaglandin G/H synthase 2 (PTGS2, Homo sapiens, UniProt P35354)
UniProt P35354, sequence (whole entry, looked up): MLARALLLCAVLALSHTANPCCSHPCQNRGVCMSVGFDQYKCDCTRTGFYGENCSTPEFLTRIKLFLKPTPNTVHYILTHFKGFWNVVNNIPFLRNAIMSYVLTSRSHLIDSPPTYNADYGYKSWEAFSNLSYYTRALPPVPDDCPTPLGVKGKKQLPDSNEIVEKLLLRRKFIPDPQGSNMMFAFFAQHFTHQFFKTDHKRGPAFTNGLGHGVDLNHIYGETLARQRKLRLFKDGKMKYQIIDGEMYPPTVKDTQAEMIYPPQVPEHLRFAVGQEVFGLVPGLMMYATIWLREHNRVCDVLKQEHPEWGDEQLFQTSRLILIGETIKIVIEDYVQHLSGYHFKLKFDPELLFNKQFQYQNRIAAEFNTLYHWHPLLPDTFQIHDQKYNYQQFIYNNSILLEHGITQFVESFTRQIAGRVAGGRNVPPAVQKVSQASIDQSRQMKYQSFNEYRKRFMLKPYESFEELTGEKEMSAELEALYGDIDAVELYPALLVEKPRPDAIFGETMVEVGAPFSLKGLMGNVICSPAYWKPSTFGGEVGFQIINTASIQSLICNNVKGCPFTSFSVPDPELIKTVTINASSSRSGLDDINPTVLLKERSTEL
UniProt Q16288, sequence (whole entry, looked up): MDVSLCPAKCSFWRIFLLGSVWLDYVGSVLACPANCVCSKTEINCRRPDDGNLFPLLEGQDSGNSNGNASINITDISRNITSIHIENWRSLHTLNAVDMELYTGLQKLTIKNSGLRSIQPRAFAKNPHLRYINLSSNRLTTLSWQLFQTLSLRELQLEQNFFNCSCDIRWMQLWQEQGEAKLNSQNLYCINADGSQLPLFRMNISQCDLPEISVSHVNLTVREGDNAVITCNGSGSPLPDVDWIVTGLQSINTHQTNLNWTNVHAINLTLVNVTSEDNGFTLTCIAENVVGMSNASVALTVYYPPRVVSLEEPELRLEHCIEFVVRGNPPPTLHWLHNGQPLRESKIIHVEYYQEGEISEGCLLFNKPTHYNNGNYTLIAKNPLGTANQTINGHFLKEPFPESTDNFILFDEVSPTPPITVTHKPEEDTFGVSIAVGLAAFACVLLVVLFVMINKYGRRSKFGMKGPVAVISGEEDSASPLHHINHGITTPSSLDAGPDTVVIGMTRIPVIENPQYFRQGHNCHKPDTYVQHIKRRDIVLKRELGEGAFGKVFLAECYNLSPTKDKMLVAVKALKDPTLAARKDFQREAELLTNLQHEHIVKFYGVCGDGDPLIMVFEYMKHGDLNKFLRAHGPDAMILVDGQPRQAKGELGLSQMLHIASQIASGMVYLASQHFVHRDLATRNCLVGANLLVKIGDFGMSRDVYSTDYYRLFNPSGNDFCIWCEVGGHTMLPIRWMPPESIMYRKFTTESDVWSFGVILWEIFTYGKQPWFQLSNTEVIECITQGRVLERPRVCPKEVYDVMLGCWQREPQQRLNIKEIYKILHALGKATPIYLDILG
UniProt P07384, sequence (whole entry, looked up): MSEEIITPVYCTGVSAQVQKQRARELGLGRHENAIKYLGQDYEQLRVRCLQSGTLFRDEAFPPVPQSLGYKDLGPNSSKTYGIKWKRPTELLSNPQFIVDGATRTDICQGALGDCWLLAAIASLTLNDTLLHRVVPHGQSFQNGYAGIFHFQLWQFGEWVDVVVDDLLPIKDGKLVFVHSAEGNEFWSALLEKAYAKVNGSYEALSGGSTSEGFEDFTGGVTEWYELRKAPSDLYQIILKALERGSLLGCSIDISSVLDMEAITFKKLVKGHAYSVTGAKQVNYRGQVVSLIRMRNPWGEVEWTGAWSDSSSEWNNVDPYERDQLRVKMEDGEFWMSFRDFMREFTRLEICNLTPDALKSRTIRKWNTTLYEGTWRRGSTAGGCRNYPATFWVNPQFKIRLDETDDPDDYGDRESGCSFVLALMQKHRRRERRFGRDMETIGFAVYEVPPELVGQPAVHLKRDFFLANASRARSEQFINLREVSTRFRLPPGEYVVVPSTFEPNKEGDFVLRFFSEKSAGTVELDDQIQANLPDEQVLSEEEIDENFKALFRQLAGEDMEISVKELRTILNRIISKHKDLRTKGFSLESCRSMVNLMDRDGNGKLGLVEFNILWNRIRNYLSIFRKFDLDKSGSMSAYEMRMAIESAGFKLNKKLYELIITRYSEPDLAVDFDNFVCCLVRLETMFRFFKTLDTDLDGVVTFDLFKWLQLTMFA
UniProt Q6V1X1, sequence (whole entry, looked up): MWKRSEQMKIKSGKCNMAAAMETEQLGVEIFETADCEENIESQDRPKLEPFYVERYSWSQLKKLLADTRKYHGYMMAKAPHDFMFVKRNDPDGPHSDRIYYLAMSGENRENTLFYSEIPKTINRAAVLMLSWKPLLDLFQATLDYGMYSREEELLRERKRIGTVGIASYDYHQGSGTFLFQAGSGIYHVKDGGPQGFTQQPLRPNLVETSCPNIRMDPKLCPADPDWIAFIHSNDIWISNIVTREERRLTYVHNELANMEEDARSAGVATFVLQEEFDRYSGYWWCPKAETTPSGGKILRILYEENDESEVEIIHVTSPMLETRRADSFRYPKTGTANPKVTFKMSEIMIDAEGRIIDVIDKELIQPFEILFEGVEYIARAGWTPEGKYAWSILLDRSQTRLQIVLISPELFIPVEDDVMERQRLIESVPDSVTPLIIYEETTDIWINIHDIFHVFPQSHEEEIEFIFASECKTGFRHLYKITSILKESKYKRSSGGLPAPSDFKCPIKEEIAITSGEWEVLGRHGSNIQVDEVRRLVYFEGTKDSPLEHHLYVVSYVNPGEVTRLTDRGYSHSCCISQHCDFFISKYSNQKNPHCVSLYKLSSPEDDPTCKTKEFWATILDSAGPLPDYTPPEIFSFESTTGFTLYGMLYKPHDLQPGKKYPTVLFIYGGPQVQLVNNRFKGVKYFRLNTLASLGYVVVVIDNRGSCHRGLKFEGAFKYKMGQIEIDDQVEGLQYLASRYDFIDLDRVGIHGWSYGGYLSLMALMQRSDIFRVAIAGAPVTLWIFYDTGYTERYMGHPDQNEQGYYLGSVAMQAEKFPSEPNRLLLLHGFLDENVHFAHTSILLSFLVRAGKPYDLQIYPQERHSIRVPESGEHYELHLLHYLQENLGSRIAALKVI
UniProt Q9ULC6, sequence (whole entry, looked up): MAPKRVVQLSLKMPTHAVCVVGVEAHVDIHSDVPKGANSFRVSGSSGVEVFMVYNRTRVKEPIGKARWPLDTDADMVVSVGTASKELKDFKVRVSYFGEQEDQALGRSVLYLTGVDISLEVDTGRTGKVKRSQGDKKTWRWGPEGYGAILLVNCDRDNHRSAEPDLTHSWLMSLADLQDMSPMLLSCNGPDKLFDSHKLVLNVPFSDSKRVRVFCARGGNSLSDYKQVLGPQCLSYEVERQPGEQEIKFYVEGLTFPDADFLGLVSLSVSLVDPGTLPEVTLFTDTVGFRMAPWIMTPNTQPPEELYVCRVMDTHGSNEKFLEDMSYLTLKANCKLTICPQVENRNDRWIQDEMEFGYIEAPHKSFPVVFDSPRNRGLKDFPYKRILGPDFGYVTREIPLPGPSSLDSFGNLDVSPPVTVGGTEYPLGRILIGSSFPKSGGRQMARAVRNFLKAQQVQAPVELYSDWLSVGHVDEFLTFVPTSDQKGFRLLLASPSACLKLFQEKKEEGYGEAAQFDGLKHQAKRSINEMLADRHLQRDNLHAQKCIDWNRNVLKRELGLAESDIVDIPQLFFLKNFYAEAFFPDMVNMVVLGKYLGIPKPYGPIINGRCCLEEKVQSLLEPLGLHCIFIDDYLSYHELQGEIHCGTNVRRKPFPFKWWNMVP

Compound	target	test	system	scale	selectivity ratio
CC1=Cc2ccccc2C12CCN(C1Cc3ccccc3CC1O)CC2 (racemic)	Vesicular acetylcholine transporter	–	rat liver (sigma2)	reference: Ki sigma2 over Ki VAChT	74
CCn1c(-c2nc3cc(C(=O)N4CCC[C@@H](N)C4)cc(OC)c3n2C)cc2cccnc21	Protein-arginine deiminase type-1 (PADI1, Homo sapiens, UniProt Q9ULC6)	–	–	reference: Ki PAD1 over PAD4	36
CC(C)C[C@@H]1C(=O)N[C@H]([C@@H](C)O)C(=O)N[C@H](C)[C@@H](C)C(=O)O[C@@H](Cc2ccccc2)C(=O)N(C)[C@@H](C(C)C)C(=O)N2CCC[C@H]2C(=O)N(C)[C@H](Cc2ccccc2)C2=N[C@@H](CS2)C(=O)N[C@H](C)C2=N[C@@H](CS2)C(=O)N1C	Dipeptidyl peptidase 8 (Homo sapiens, UniProt Q6V1X1)	–	–	reference: IC50 DPP4 over DPP8	9.9 fold
Cc1ccc(S(=O)(=O)NNC(=O)COC(=O)c2ccccc2Nc2cccc(C(F)(F)F)c2)cc1	PTGS2	–	–	reference: COX-1 IC50 over COX-2 IC50	1.69
COc1cc2nccc(Oc3ccc(NC(=O)c4cc5c(n(-c6ccccc6)c4=O)CCCC5=O)nc3)c2cc1OC	NT-3 growth factor receptor (NTRK3, Homo sapiens, UniProt Q16288)	cell viability, CellTiter-Glo	Ba/F3 expressing recombinant kinase	reference: NTRK3 IC50 over AXL IC50	> 100
O=C(COC(=O)c1ccccc1Nc1cccc(C(F)(F)F)c1)NNS(=O)(=O)c1ccccc1	PTGS2	–	–	reference: COX-1 IC50 over COX-2 IC50	5.01
OC1Cc2ccccc2CC1N1CCC2(C=Cc3ccc(F)cc32)CC1 (racemic)	Vesicular acetylcholine transporter	–	rat liver (sigma2)	reference: Ki sigma2 over Ki VAChT	32
Cn1nccc1[C@]1(CNC(=O)c2ccc(F)c(F)c2-c2ccc(C(F)(F)F)cc2)NC(=O)NC1=O	Calpain-1 catalytic subunit (CAPN1, Homo sapiens, UniProt P07384)	inhibitor	–	reference: CAPN1 over target	> 16700

Repeated from above:
Compound	target	test	system	scale	selectivity ratio
O=C(COC(=O)c1ccccc1Nc1cccc(C(F)(F)F)c1)NNS(=O)(=O)c1ccccc1	PTGS2	–	–	reference: COX-1 IC50 over COX-2 IC50	5.01
